Experimental data pooled from the literature.
Lines come from different studies, so protocols differ. Numbers after ± are the reported error.
Chain of UniProt Q9C0E2 (whole entry, looked up): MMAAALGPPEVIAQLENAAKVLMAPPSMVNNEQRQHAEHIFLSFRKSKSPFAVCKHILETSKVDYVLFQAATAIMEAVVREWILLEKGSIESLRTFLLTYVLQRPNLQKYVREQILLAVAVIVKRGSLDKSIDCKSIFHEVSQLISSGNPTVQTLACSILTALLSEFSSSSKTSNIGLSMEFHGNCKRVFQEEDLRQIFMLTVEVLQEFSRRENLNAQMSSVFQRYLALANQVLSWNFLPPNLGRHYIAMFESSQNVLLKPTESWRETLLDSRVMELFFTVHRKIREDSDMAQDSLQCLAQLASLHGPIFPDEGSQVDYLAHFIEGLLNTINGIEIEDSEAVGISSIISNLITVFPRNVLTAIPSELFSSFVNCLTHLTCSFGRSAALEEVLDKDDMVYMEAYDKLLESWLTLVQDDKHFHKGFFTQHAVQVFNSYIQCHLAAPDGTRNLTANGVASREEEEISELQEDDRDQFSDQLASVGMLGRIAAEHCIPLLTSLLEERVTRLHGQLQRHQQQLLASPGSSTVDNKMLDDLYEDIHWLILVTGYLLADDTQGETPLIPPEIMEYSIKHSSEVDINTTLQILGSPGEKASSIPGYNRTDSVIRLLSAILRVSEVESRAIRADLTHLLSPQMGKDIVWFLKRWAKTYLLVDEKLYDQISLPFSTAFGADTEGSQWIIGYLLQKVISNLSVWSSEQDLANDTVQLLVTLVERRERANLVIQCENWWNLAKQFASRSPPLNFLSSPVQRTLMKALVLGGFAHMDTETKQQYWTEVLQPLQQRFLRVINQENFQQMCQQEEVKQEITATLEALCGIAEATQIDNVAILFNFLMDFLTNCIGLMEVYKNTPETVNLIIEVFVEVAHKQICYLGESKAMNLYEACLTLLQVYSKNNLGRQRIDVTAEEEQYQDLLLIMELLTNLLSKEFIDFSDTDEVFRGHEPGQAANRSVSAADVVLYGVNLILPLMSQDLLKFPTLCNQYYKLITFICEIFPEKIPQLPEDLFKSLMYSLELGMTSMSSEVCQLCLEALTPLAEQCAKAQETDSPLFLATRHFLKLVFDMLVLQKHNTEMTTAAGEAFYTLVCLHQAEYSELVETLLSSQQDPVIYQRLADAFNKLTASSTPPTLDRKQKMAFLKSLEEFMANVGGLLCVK

| Structure (SMILES) | target or system | assay | system | setting | scale | endpoint | value |
| --- | --- | --- | --- | --- | --- | --- | --- |
| CCN1[C@@H](C(=O)NC23CCC(C(=O)O)(CC2)CC3)[C@H](c2cccc(Cl)c2F)[C@]2(C(=O)Nc3cc(Cl)ccc32)C12CCCCC2 | – | – | patients with advanced solid tumours | oral, 200 mg | – | grade ≥3 adverse event incidence | 50% |
| C[C@H]1CN(c2n[nH]c3nc(N[C@H]4CC[C@H](NS(=O)(=O)CCC(F)(F)F)CC4)ncc23)CCO1 | Exportin-4 (Homo sapiens, UniProt Q9C0E2) | Kinobeads competition, measured: XPO4 | – | 0.032 µM, unit not given | relative to: vehicle | remaining binding | 1.34 |
| CN(C(=O)n1cnc(-c2ccc[n+]([O-])c2)c1)C1CCCCC1 | – | – | Wistar rat, cerebral cortex | oral, 10 mg/kg, 4 h, single dose | – | concentration | 80.3 ± 26.8 ng/g |
| CC(C)C[C@H](NC(=O)[C@H](CCCCN)NC(=O)OCC1c2ccccc2-c2ccccc21)C(=O)N[C@H](C(=O)N[C@@H](Cc1ccccc1)C(=O)N[C@@H](Cc1ccccc1)C(=O)N[C@@H](CCCCN)C(=O)NCC(=O)N[C@@H](Cc1ccccc1)C(=O)N[C@@H](C)C(=O)N[C@@H](Cc1c[nH]c2ccccc12)C(=O)N[C@@H](CC(N)=O)C(=O)N[C@H](C(=O)N[C@H]1CSSC[C@@H](C(=O)N[C@@H](Cc2c[nH]cn2)C(=O)N[C@@H](CCCNC(=N)N)C(=O)N[C@@H](CCCNC(=N)N)C(=O)N[C@@H](C)C(=O)N[C@@H](CC(N)=O)C(N)=O)NC(=O)[C@H](C(C)C)NC(=O)[C@H](CCCNC(=N)N)NC(=O)[C@H](C(C)C)NC(=O)CNC(=O)[C@H](CC(N)=O)NC(=O)[C@H](CCCNC(=N)N)NC(=O)[C@H](Cc2ccc(O)cc2)NC(=O)[C@H](C(C)C)NC1=O)C(C)C)C(C)C | – | – | ICR mouse, blood | intramammary, 5 mg/kg, day 5, 3 d dosing | – | haematocrit | 41 ± 0.99% |
| CC(=O)N[C@@H](CC(N)=O)C(=O)N[C@@H](CC(N)=O)C(=O)N[C@@H](CC(C)C)C(=O)N[C@H]1CSSC[C@@H](C(=O)N[C@H](C(N)=O)[C@@H](C)O)NC(=O)[C@H](CCCNC(=N)N)NC(=O)[C@H](Cc2c[nH]cn2)NC(=O)[C@H](Cc2cccc3ccccc23)NC(=O)CNC(=O)[C@H](Cc2c[nH]c3ccccc23)NC(=O)[C@H](CC(=O)O)NC(=O)[C@H](CCC(N)=O)NC(=O)[C@H](Cc2c[nH]c3ccccc23)NC(=O)[C@H](C(C)C)NC1=O | – | isocratic RP-HPLC | C18 column | pH 7.4, 25 °C, elution method 2 | higher = more lipophilic | log retention factor | 0.32 |
| Cc1cccc(Cn2nc(C3CC3)c3c(NC(=O)c4cnc5cc(OCCN6CCN(C)CC6)ccn45)cccc32)n1 | – | CTCAE v4.03, measured: ALT increased | PD-1/PD-L1 inhibitor-refractory patients | oral, dose not given, together with: pembrolizumab IV every 3 weeks | – | all-cause adverse events | 15.8% |
| c1ccc2c(c1)ccc1cc3c(ccc4ccccc43)cc12 | – | – | fresh water | 12 (unit not given), 20 °C, S30-1 sampler, 30 µm | – | log K(PDMS-water) | 5.36 ± 0.08 |
| NC(=O)[C@H]1CCN(c2ncnc(N)c2F)C[C@@H]1N1CCC[C@@H](Nc2cc(Cl)cc(C(F)(F)F)c2)C1=O | – | – | B-cell malignancy patients | oral, 41 mg twice daily, dose | – | grade ≥3 leukocytosis | 20% |
| c1ccc2c(c1)cc1ccc3cccc4ccc2c1c34 | – | – | polyethylene-water partitioning | PAH compilation | relative to: maximum over minimum K | literature range factor | 31 |
| CC(C)C[C@@H]1NC(=O)CNC(=O)[C@H](CC(N)=O)NC(=O)[C@H](CCCNC(=N)N)NC(=O)[C@H]([C@@H](C)O)NC(=O)[C@@H]2CSSC[C@@H]3NC(=O)[C@H]([C@@H](C)O)NC(=O)CNC(=O)CNC(=O)[C@H](C(C)C)NC(=O)[C@@H]4CSSC[C@H](NC(=O)[C@H]([C@@H](C)O)NC(=O)[C@H](CSSC[C@H](NC(=O)[C@H](C(C)C)NC(=O)[C@@H]5CCCN5C1=O)C(=O)NCC(=O)N[C@@H](CCC(=O)O)C(=O)N[C@@H]([C@@H](C)O)C(=O)N4)NC(=O)CNC(=O)[C@@H]1CCCN1C(=O)[C@H]([C@@H](C)O)NC(=O)[C@H](CCCCN)NC3=O)C(=O)N[C@@H](CO)C(=O)N[C@@H](Cc1c[nH]c3ccccc13)C(=O)N1CCC[C@H]1C(=O)N[C@@H](C(C)C)C(=O)N2 | – | HPLC | ammonium bicarbonate | 180 µM, 14 days, pH 9.0, 25 °C, deamidation stability | – | remaining peptide | 91.2 ± 0.2% |
| CC[C@H](C)[C@@H]1NC(=O)[C@@H]2CCCN2C(=O)[C@H](CC(C)C)NC(=O)[C@H](CC(C)C)NC(=O)CNC(=O)[C@@H](NC(=O)[C@@H](NC(=O)[C@H](CC(=O)O)NC(=O)CNC(=O)[C@@H](NC(=O)[C@H](C)NC(=O)CNC(=O)[C@H](CCCCN)NC(=O)[C@H](CC(C)C)NC(=O)[C@H](CC(C)C)NC(=O)[C@H](CCCCN)NC(=O)CNC(=O)[C@@H](NC(=O)[C@@H](N)CC(C)C)C(C)C)C(C)C)C(C)C)CSSC[C@@H](C(=O)O)NC1=O | – | RNA-seq, measured: Slc28a2 | mouse, traumatic brain injury model, frontal cortex and hippocampus | dose not given | relative to: TBI alone | log2 fold change | -3.47 |
| C=CC(=O)Nc1cc(Nc2nccc(Nc3cc(Cl)c(F)cc3C(C)(C)O)n2)c(OC)cc1N1CC[C@@H](N(C)C)C1 | – | – | human patients | oral, 100 mg, treatment-emergent adverse events | – | patients with lipase increased | 0% |
| Clc1ccc(-c2ccc(Cl)c(Cl)c2)c(Cl)c1 | – | – | fresh water | 20 °C, S30-2 sampler, 30 µm | – | log K(PDMS-water) | 5.71 ± 0.02 |
| C=CCNc1c(O)cc2c(O)c1C[C@@H](C)C[C@H](OC)[C@H](O)[C@@H](C)/C=C(\C)[C@H](OC(N)=O)[C@@H](OC)/C=C\C=C(/C)C(=O)N2 | – | – | unresectable or metastatic STS, GIST, other | intravenous, 300 mg/m^2 | – | patients with constipation TEAE | 0% |
| COc1cc2c(Oc3ccc4[nH]c(C)cc4c3F)ccnc2cc1OCC1(N)CC1 | – | – | paediatric recurrent refractory sarcoma | 8 mg | – | grade 1 or 2 AST elevation | 25% |
| Cc1ncnc2c1ccn2[C@@H]1C[C@H](Oc2cc(C(F)F)c(F)c3c2CNCC3)[C@@H](O)[C@H]1O | – | – | patients | any grade | relative to: patients | Nausea incidence | 11% |
| O=[N+]([O-])c1cc2c3c(ccc2c2ccccc12)[C@@H](O)[C@H](O)C=C3 | – | measured: adenocarcinoma mammary tumours | female Sprague-Dawley rats | intramammary, 12.3 µmol per rat, up to 32 weeks | – | tumours per rat | 0.21 ± 0.5 |
| C=C(C)[C@@H]1CCC(C)=C[C@H]1c1c(O)cc(CCCCC)cc1O | – | – | human | 750 mg, trial 17074, together with: rifampicin 600 mg | – | subjects with AEs | 44% |
| Clc1ccc(-c2ccccc2)cc1 | – | – | Sprague-Dawley rats, female, serum | inhalation, 23 µg/rat, 0 h after exposure | – | glucose | 271 ± 71 mg/dL |
| C[C@]1(CO)Cc2ncn(-c3ccc(C#N)c(Cl)c3)c2C(=O)O1 | – | – | human, plasma | 3 mg once daily, fasted | – | half-life at steady state | 5.2 h |

| Structure (SMILES) | target or system | assay | system | setting | scale | endpoint | value |
| --- | --- | --- | --- | --- | --- | --- | --- |
| COc1ccc(-c2cc(=O)c3c(OC)c(OC)c(OC)c(OC)c3o2)cc1OC | – | – | Sprague Dawley rat, plasma | oral, 10 g lyophilized powder/kg, high dose | – | Vz/F | 8690 ± 5650 L/kg |
| O=S(=O)(Nc1ccccc1)c1ccc(NC(=S)Nc2ccccc2)cc1 | – | – | male mice, thymus | oral, 5 mg/kg daily 14 days | relative to: body weight | relative organ weight | 0.27% |
| CN1CCN(c2ccc(Nc3nccc(-c4ccc(F)cc4)n3)cc2C(F)(F)F)CC1 | – | – | zebrafish embryos | 25 µM, 5 d | – | toxicity | 0% |
| CN1CC[C@@H](c2c(O)cc(O)c3c(=O)cc(-c4ccc(C(F)(F)F)cc4Cl)oc23)[C@@H]1CO | – | measured: respiratory failure | B-cell malignancies or AML | oral, 100 mg, grade 3 to 4, continuous dosing | – | patients with adverse event | 12.5% |
| O=C(Nc1ccccc1)C1CCN(C(=O)Oc2cccnc2)CC1 | – | – | healthy women | oral, 20 mg, 7 days | – | adverse event Palpitations | 7.1% |
| CC(C)CC(=O)OC[C@H]1O[C@@](C#N)(c2ccc3c(N)ncnn23)[C@H](O)[C@@H]1O | – | – | Sprague-Dawley rat, female, bile | 80 mg/kg, time not given | relative to: dose | recovery in bile | 2.08e-06% |
| CCc1ccc(CC/C=C/c2ccc3c(c2)C(=O)CC3)cc1 | – | – | Sprague-Dawley rat, male, serum | oral, 30 mg/kg/day, 14 days | – | chloride | 104 mM |
| Clc1cc(-c2cc(Cl)c(Cl)c(Cl)c2)cc(Cl)c1Cl | – | – | fresh water | 20 °C, SSP sampler, 100 µm | – | log K(PDMS-water) | 5.76 ± 0.17 |
| C[C@H]1C[C@@H](N2C(=N)N[C@](C)(c3cccc(NC(=O)c4cccc(C#N)c4)c3Cl)CC2=O)CCO1 | – | – | rat | 1000 mg/kg, every other day | – | glucose change | 37% |
| O=C1Nc2cc3[nH]nc(-c4ccncc4)c3cc2CN1Cc1ccccc1 | – | measured: QTc prolongation | patients with advanced solid tumours | intravenous, dose not given | – | patients with TEAE | 11% |
| C[C@@H]1N=C(c2ccccc2F)c2cc(Br)ccc2-n2cnc(C(=O)O)c21 | – | – | mouse liver S9 fraction | 10 µM, 2 h, glucuronidation | – | parent remaining | ~85% |
| COc1cc2c(cc1OC)CN(CCc1ccc(NC(=O)c3cccc4c(=O)c5cccc(OC)c5[nH]c34)cc1)CC2 | – | – | CD-1 mouse, male, lung | intraperitoneal, 0.3 mg/kg | – | elimination rate constant | 1.92e-05 s⁻¹ |
| COc1ccnc(C(=O)N[C@H]2COC(=O)[C@H](Cc3ccccc3)[C@@H](OC(=O)C(C)C)[C@H](C)OC2=O)c1OCOC(=O)C(C)C | – | – | Staffordshire loam sediment, aerobic dark | 20 °C | – | DT50 sediment | 0.91 days |
| O=C(O)CCCOc1ccc(F)cc1-c1cc(-c2ccccc2C(F)(F)F)n(-c2ccccc2)n1 | – | measured: Lymphocytes | Crl:CD(SD) rats, female, blood | iv, 25 µg/kg, 14 days | – | leukocyte differential | 79.1 ± 5.1% |
| CO[C@H]1C[C@@H]2CC[C@@H](C)[C@@](O)(O2)C(=O)C(=O)N2CCCC[C@H]2C(=O)O[C@H]([C@H](C)C[C@@H]2CC[C@@H](OC(=O)NCCOCCOCCOCCOCCOCCOCCOCCOCCC(=O)N3CCc4cc(Cn5nc(-c6ccc7oc(N)nc7c6)c6c(N)ncnc65)ccc4C3)[C@H](OC)C2)C[C@@H](O)[C@H](C)/C=C(\C)[C@@H](O)[C@@H](OC)C(=O)[C@H](C)C[C@H](C)/C=C/C=C/C=C/1C | – | – | patients with advanced solid tumours | intravenous, 10 mg weekly, grade 3 or higher | – | dyspnoea incidence | 12.5% |
| CC(=O)c1c(C)c2cnc(Nc3ccc(C4CCN(CCS(C)(=O)=O)CC4)cn3)nc2n(C2CCCC2)c1=O | – | – | human patients, plasma | oral, 100 mg twice daily, day 21 multiple doses, together with: fulvestrant | – | elimination rate constant | 2.78e-05 s⁻¹ |
| N[C@@H]1c2ccccc2OC12CCN(c1cnc3c(N4CCCc5ncccc54)n[nH]c3n1)CC2 | – | – | advanced solid tumour patients | oral, 100 mg once daily | – | TEAE causing dose reduction | 14.3% |
| CC(C)C[C@@H]1NC(=O)CNC(=O)[C@H](CC(N)=O)NC(=O)[C@H](CCCNC(=N)N)NC(=O)[C@H]([C@@H](C)O)NC(=O)[C@@H]2CSSC[C@@H]3NC(=O)[C@H]([C@@H](C)O)NC(=O)CNC(=O)CNC(=O)[C@H](C(C)C)NC(=O)[C@@H]4CSSC[C@H](NC(=O)[C@H]([C@@H](C)O)NC(=O)[C@H](CSSC[C@H](NC(=O)[C@H](C(C)C)NC(=O)[C@@H]5CCCN5C1=O)C(=O)NCC(=O)N[C@@H](CCC(=O)O)C(=O)N[C@@H]([C@@H](C)O)C(=O)N4)NC(=O)CNC(=O)[C@@H]1CCCN1C(=O)[C@H]([C@@H](C)O)NC(=O)[C@H](CC(N)=O)NC3=O)C(=O)N[C@@H](CO)C(=O)N[C@@H](Cc1c[nH]c3ccccc13)C(=O)N1CCC[C@H]1C(=O)N[C@@H](CCCCN)C(=O)N2 | – | HPLC | water | 180 µM, 14 days, 37 °C, deamidation stability | – | remaining peptide | 98.1 ± 1% |
| COc1ccc(-c2c(-c3ccc(C#N)c(F)c3)nc(N3CCC(N)CC3)n(C)c2=O)cc1F | – | measured: Hepatic pain | human patients | oral, dose not given, dose escalation, NG | – | serious adverse event incidence | 0% |
| CCN(CCO)CCCC(C)Nc1ccnc2cc(Cl)ccc12 (stereo not shown) | – | – | newly diagnosed glioblastoma patients | oral, 200 mg/dose, grade 1, together with: radiotherapy and temozolomide | – | anemia patients | 66% |
